Published values pooled from the literature.
Numbered parts are unrelated; each lists some results of a single study.

Series 1
Target: Interferon regulatory factor 3, full length, phosphomimetic (IRF3, Homo sapiens, UniProt Q14653, residues 1-427, S386D/S396D/S398D/S402D/T404D/S405D)
Technique: protein-binding microarray
Molecule type: double-stranded DNA, one strand shown
Matrix: in vitro
Concentration: 2540 nM top
Setting: 60-bp whole probe
Added: salmon DNA 0.4 mg/ml
Relative to: random background probes
Reading: higher = stronger binding
All sequences stand within: GCCTAGCAC … GTCTTGATTCGCTTGACGCTGCTG
Residues (chain): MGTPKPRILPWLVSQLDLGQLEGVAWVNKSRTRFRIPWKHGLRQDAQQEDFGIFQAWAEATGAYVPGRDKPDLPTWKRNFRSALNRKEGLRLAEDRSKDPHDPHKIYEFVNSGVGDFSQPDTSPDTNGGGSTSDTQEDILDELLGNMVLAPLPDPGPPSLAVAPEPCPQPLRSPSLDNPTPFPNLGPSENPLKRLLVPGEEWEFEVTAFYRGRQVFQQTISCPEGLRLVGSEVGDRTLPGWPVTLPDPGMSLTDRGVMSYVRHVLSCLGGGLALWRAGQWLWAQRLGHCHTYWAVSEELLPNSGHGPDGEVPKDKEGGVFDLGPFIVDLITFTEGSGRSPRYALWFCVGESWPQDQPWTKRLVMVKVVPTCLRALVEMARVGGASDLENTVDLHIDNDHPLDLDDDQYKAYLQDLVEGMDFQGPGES
Strand	fitted relative affinity [z-score]
TCCTAATTCTCTTTTCACTTGTGCTAG	2.41
GATGATTTCGGGTATCGAGACGTGCTA	1.13
TCAATTCCAGGGTTTTATACTGTGCTA	0.19
TTAGGCATCGACTTTCGGTTAGTGCTA	0.789
TTAGGTATCCTTTTGCTTTAGTGCTAG	6.16
GACGGAATCCTTTTCCTGACGTGCTAG	4.07
TTAGGAATGGGGACTGGGTTAGTGCTA	-0.727
ATTCTTTGCTCATTTTTCAGGGTGCTA	1.62
TTAGGTTTCCTTTCCCGTTAGTGCTAG	10.4
TCACATTGAGATTTTCATACTGTGCTA	0.295
GACGGTTTCGGGTATCGGGACGTGCTA	4.69

Series 2
Target: Ras GTPase-activating protein-binding protein 1, full length (G3BP1, Homo sapiens, UniProt Q13283)
Chain of UniProt Q13283 (whole entry, looked up): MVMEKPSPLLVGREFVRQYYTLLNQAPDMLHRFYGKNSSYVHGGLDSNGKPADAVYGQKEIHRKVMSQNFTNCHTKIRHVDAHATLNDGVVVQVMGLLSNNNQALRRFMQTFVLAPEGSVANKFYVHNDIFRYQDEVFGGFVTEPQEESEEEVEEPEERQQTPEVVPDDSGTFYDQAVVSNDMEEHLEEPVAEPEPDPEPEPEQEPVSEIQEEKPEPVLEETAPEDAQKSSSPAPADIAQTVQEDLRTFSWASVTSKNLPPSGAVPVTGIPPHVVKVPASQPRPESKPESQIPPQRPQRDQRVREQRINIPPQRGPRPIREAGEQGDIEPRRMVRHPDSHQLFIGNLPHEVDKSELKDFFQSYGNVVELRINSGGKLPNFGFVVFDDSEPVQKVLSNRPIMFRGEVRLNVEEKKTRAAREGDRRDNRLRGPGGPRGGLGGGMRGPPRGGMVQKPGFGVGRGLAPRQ
Technique: RNA Bind-n-Seq
Molecule type: RNA
Matrix: in vitro
Concentration: 200 nM
Setting: whole 134-nt RNA, ends assumed
Added: 150 mM KCl
Relative to: input library
Reading: higher = stronger binding
Strand	log2 enrichment
GGGAGUUCUACAGUCCGACGAUCGUCCUGUGCUACACAUCGUAUGUACCGAAUCGGGUUUUUGGGAAAGGGUUUUUUUGGGAAAGUAUUAUGUUACGCCGUUCGGAUCUGCACUGGAAUUCUCGGGUGUCAAGG	-0.425
GGGAGUUCUACAGUCCGACGAUCUCAAGUCCUGUGCUACACAUCGUAUGUACCGAAUCGGUUUUUUUGGAGGUUUGGAAAGUAUUAUGUUACGCCGUUCGGAUCUGCACUUCCUGGAAUUCUCGGGUGUCAAGG	-0.942
GGGAGUUCUACAGUCCGACGAUCUUGGAGGUGGAUUUUGUUUAUUUUUUUAGCUCAUUUCCAGGGGUGGGAAUUUUUUUUUAAUAUGUGUCAUGAAUAAAGUUGUUUUUGAAAUGGAAUUCUCGGGUGUCAAGG	-0.895
GGGAGUUCUACAGUCCGACGAUCUAACUUUAGAGGAGGAUCUAAUGGAUAUGGCAGUGGACGUGGAUUUGGGGAUGGCUAUAAUGGGUAUGGAGGAGGACCUGGAGGUGGCAAUGGAAUUCUCGGGUGUCAAGG	0.45

Series 3
Target: RING finger protein unkempt homolog, zinc fingers 1-6, GST-SBP tag (UNK, Homo sapiens, UniProt Q9C0B0, residues 30-357)
Chain of UniProt Q9C0B0 (30-357, looked up): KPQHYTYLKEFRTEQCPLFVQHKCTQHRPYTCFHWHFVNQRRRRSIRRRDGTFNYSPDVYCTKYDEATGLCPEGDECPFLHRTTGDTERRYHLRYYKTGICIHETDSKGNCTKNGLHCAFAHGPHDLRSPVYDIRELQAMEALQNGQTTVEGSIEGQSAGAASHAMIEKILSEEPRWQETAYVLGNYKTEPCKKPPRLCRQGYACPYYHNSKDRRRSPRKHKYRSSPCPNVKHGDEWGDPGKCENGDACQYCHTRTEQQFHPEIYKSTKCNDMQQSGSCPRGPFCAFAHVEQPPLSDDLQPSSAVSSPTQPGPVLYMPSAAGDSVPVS
Technique: RNA Bind-n-Seq
Molecule type: RNA
Matrix: in vitro
Concentration: not given
Setting: RNA with constant flanks, human and mouse sites, ends assumed
Relative to: input RNA pool
Reading: higher = stronger binding
All sequences stand within: GGGAGUUCUACAGUCCGACGAUC … CAACAGAGGAUUGAGCAUCA
Strand	bound/input enrichment
GAGGAUGAAGAUGUAAAAGAAGCCAUAAGAAGACUUCCUGAGAACCUUUAUAAUGACAGGAUGUUUCGCAUUAAGAGGGCACUGGACCUGAACUUGAAGCAUCAGAUCUUGCCUAAAGAG	0.291 ratio
UUGGUGGCUAUUUUUAAACCCAGCUGUAUUAAAAGGUGAUGUUGAAUUUUACGACACCCCUACCAUGGCCUGCUUUUAAAUUCGGGGCUUCUAAACCUGGUUGUACUUUUUAAAUUAUAU	0.345 ratio
GCUACUUCUGGUGAUAUUUGGCCUGGCCUUUCAGCUUAUGAUAAUAGUCCAAGGUCACCUCAUAGUCCUUCACCUAUUGCUACACCACCCAGUCAGAGUUCAUCAUGCUCAGAUGCCCCC	0.281 ratio
GACACGUUUAUUCGAGUUCUGCAAAAAUUGAACAGUAUUCUGACUCAGCCUUGGAGGCUCCAUGUCAACAUGGGGACUACCCUUCACAGAGUUACUACUAUUUCAAUGGCUCGCUGCACA	0.138 ratio
UCAACAUGAACCAGGCUACUGUUUAAGUACAUGUAUAUUAUAAAUUAUCUUGUGUUAUUAUCUUUUCUAAGAGAACAAAGUCCCUAUUAUUCCUAUUGCAAAGCACACAGGAAUUUAAGA	0.389 ratio
AAGGAACUGCAGGUUGAACUGUCUGGCUGAAGCAAUGGCGGGUAUGGCAAGCCCCUCCCAUAGUAAAUCCCCCUGCCUAUAUUAUAAUGGAUCAUGCGAUAUCAGUAUGGGAAGUGUAUG	1.67 ratio
UGUGAUCAUGCCAAUCCACAGCUUUCAAAUCCAAGUCCGUUUCAGACACUUGGGCUGGAUUUAGUAUUGGAAUGUGUCGCUAGGUACCAACCCAAGCAGCGUUCAAUGUUUACCUUUGUG	0.161 ratio
AUUAAACAUUACUUCAGUGUAGUUCCCGGAAAUGUAGGCUCUUCCCCCAGAUCUUCUGAUUUAGUCAAAUUAGCUCAAGAAUGCUGUUACCAUAGCAACAGGGGCAUCGCAGCUCAUGGA	1.73 ratio

Series 4
Target: Sal-like protein 4, full length isoform B (SALL4, Homo sapiens, UniProt Q9UJQ4-2, residues 1-616)
Technique: universal PBM
Molecule type: double-stranded DNA, one strand shown
Matrix: in vitro
Concentration: not given
Setting: 8-mer, flanks averaged, mean of replicates
Reading: higher = stronger binding
Strand	E-score
AAAATGAC	0.228
CCGTTAGG	-0.158
CGTAGCGC	-0.205
ATTGAGAA	0.218
CGTACGTC	-0.034
GGGTACCA	-0.247
ATCAGAAC	0.0551
ATCCAACA	0.161
CGTGGCAC	-0.247
TATACGGA	0.105
ACAAGTCA	0.0509
GCAGAGGC	-0.159
TATTGTGA	0.196
AAAGCGAT	0.0863
AGAGTCCG	-0.108

Some of these lines once more (series 1):
Strand	fitted relative affinity [z-score]
TTAGGTTTCCTTTCCCGTTAGTGCTAG	10.4
TTAGGAATGGGGACTGGGTTAGTGCTA	-0.727
GACGGTTTCGGGTATCGGGACGTGCTA	4.69
TCAATTCCAGGGTTTTATACTGTGCTA	0.19
TCACATTGAGATTTTCATACTGTGCTA	0.295
